Measurements gathered from unrelated publications.
Several values in a cell are separate wells, animals, samples, runs or records. Numbers after ± are the reported error.
Genome polyprotein NS3 helicase domain: Genome polyprotein, NS3 helicase domain (Hepatitis C virus genotype 1b, UniProt Q9WMX2)
ESR1: Estrogen receptor (ESR1, Homo sapiens, UniProt P03372)
UniProt P03372, sequence (whole entry, looked up): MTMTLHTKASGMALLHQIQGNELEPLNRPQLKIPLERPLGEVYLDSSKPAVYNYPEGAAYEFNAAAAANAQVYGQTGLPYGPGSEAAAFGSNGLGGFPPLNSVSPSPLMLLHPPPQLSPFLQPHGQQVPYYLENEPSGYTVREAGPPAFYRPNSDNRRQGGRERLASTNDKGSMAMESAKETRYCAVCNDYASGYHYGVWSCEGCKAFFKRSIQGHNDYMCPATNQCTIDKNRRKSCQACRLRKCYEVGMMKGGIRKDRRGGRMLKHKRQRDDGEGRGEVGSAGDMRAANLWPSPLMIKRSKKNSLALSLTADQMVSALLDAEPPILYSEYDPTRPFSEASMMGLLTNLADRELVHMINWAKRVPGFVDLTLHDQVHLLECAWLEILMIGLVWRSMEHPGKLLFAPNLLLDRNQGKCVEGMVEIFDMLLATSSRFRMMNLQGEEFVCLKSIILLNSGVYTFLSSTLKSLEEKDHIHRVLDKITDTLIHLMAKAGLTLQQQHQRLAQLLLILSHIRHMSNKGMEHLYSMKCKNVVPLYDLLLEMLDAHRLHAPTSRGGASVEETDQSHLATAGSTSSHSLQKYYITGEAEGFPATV
WD repeat-containing protein 91 WD40 domain, residues 392–747: WD repeat-containing protein 91, WD40 domain, residues 392–747 (Homo sapiens, UniProt A4D1P6)
UniProt P51575, sequence (whole entry, unmodified, looked up): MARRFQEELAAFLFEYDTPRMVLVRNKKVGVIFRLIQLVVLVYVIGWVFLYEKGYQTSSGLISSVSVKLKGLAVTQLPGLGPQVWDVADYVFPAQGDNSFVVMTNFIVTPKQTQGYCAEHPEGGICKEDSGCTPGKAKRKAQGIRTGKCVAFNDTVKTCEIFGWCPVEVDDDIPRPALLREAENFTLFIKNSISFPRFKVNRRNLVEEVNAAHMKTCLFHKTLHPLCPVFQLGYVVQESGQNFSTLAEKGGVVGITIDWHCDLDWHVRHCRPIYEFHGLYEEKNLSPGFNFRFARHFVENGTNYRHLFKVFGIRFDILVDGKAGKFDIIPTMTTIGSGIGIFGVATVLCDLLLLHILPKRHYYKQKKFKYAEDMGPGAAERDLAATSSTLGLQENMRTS
UniProt A4D1P6, sequence (whole entry, looked up): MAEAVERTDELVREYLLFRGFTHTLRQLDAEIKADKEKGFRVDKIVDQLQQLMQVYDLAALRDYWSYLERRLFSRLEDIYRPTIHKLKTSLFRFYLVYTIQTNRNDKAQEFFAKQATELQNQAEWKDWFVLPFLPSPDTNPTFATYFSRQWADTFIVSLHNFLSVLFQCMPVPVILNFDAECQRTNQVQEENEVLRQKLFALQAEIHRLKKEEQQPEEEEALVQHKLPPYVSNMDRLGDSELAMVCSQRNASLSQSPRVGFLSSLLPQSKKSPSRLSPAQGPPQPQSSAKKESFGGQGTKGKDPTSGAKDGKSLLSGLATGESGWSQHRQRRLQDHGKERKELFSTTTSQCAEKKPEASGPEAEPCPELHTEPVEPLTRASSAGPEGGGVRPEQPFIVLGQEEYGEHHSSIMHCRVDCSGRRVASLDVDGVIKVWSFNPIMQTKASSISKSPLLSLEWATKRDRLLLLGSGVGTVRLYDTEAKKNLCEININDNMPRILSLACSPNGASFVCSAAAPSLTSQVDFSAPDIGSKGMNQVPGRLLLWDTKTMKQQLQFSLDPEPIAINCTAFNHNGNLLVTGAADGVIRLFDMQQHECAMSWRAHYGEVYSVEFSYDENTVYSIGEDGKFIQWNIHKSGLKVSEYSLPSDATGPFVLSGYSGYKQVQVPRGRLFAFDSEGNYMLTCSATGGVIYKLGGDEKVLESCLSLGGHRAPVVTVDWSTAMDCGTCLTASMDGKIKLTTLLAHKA
UniProt O76090, sequence (whole entry, unmodified, looked up): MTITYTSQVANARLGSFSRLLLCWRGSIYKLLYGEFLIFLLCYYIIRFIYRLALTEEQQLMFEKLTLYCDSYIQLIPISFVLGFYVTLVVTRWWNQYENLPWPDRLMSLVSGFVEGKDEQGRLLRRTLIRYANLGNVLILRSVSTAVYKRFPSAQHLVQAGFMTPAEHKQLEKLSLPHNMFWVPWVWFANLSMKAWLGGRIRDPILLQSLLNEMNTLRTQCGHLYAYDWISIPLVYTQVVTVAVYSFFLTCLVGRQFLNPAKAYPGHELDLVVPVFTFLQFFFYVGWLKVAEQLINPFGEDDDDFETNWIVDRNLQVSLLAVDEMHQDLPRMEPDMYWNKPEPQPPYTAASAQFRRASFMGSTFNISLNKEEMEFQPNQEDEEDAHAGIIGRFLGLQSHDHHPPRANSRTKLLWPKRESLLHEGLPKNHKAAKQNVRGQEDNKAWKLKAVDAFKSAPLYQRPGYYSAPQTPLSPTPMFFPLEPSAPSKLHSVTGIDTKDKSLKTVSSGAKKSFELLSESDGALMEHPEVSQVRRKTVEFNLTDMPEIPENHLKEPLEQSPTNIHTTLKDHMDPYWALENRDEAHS
UniProt P51449, sequence (whole entry, looked up): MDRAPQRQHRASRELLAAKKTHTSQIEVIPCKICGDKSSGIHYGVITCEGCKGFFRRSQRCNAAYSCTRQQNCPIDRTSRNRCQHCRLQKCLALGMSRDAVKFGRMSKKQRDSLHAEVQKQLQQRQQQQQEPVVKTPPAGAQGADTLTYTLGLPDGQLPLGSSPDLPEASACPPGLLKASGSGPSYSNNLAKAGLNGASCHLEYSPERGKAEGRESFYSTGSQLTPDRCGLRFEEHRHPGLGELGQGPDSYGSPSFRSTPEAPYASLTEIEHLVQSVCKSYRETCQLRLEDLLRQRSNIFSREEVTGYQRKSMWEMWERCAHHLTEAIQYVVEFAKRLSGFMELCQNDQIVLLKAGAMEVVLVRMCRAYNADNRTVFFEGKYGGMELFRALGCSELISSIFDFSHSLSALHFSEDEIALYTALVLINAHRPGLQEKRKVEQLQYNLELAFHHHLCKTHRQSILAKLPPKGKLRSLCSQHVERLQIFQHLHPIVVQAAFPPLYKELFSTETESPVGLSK
UniProt P42262, sequence (whole entry, looked up): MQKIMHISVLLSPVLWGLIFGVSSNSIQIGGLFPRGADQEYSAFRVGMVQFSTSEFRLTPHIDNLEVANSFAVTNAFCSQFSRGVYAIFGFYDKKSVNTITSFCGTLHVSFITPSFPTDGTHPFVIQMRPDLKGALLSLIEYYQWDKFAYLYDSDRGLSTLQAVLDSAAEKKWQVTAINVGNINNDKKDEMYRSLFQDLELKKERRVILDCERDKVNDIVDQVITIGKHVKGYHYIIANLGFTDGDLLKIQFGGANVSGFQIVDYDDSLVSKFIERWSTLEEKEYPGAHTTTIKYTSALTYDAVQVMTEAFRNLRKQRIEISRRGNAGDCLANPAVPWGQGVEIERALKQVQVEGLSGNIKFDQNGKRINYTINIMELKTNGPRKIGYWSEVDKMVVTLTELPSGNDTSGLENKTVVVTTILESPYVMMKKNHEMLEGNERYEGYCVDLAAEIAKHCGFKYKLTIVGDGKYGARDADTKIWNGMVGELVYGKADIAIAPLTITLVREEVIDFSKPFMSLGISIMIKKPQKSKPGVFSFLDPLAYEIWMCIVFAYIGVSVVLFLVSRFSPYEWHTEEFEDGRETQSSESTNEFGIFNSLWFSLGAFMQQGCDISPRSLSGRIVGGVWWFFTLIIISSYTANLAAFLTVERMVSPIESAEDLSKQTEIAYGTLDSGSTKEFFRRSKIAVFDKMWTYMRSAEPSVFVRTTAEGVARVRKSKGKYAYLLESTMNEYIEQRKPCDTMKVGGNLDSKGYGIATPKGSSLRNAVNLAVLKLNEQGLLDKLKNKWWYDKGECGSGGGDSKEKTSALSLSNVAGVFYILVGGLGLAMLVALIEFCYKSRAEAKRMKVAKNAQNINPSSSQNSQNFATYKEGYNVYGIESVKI
UniProt Q14258, sequence (whole entry, looked up): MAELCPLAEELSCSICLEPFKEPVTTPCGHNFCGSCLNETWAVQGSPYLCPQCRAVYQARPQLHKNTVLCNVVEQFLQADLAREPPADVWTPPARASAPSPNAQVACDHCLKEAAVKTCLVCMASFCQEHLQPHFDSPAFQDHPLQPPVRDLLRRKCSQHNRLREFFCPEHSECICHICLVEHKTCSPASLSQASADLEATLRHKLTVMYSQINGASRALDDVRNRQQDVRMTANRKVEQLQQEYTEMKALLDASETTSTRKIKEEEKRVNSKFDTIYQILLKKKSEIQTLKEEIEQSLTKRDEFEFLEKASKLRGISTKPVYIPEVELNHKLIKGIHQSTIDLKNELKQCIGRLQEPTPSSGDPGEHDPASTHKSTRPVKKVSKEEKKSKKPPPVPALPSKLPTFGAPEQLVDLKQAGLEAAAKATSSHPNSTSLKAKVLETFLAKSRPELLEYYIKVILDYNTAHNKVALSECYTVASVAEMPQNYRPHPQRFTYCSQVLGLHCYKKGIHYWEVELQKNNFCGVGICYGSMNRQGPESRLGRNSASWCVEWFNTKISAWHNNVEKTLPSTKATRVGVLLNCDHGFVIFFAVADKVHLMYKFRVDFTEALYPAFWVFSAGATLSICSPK
UniProt Q9UGP5, sequence (whole entry, unmodified, looked up): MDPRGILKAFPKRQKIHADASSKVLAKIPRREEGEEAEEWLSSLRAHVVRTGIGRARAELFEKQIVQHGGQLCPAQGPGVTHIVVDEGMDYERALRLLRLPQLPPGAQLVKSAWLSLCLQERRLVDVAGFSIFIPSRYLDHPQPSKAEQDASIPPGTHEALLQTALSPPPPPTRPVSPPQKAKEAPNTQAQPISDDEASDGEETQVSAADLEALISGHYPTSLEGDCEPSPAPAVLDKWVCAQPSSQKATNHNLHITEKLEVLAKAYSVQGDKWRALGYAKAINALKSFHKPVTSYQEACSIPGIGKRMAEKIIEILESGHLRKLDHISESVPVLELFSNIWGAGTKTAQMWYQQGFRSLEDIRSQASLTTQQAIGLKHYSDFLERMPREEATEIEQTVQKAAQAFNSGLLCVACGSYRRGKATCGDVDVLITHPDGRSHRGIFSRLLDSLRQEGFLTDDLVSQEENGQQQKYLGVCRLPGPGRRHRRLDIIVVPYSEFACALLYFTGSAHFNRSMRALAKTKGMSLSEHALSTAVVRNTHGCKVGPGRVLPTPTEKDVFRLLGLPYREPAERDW

SMILES | target | assay | test system | setting | scale | measurement | result
CCCCCCCCCCC/C=C\C(C)(C)/C=C\CCCC(=O)O | Genome polyprotein NS3 helicase domain | DNA binding, inhibitor | hepatitis C virus | 100 µM, with: Cy5-dT15 DNA |  | inhibition | 0%
NCCC[C@H](N)C(=O)O | N-alpha-acetyltransferase 80 (NAA80, Homo sapiens, UniProt Q93015) | substrate, DTNB |  | 2 mM, 30 min, 37 °C, with: acetyl-CoA 500 µM |  | product formation | 1.23 µM
COc1ccc(-n2c(SCC(N)=O)nnc2-c2cccs2)cc1 | Cyclin-dependent kinase 2 (CDK2, Homo sapiens, UniProt P24941) | binding |  |  |  | Kd | > 100 µM
CC1(C)CC2(C)OC(=O)NC2(C)c2ccccc21 (centres unmarked) | Transducin-like enhancer protein 4 (TLE4, Homo sapiens, UniProt Q04727) | binding, affinity selection mass spectrometry |  |  | relative to: other proteins in batch | log fold enrichment | 0.116
O=C1C[C@@H](c2ccc(O[C@@H]3O[C@H](CO)[C@@H](O)[C@H](O)[C@H]3O)cc2)Oc2cc(O)ccc21 | ESR1 | array formation | PRL-HeLa |  | relative to: EC50 ERβ over EC50 ERα | selectivity ratio | 3.16
O=C(COP(=O)(O)O)[C@@H](O)[C@H](O)[C@H](O)COP(=O)(O)O | E3 ubiquitin/ISG15 ligase TRIM25 (TRIM25, Homo sapiens, UniProt Q14258) | thermal proteome profiling | HepG2 cell lysate | concentration not given, 57 over 37 °C, mean | relative to: compound over control | thermal stability ratio | 0.621
Nc1ccc(C(=O)O)cc1 | BEST1, with wild-type BEST1 (Homo sapiens, UniProt O76090, Q293K) | ion current, whole-cell patch clamp | HEK293 co-expressing mutant and wild-type | concentration not given, voltage 60 mV |  | current density | 5.56 pA/pF and 8.58 pA/pF and 13 pA/pF and 14.7 pA/pF and 24.1 pA/pF and 8.49 pA/pF
Nc1ncnc2c1ncn2[C@@H]1O[C@H](COP(=O)(O)CP(=O)(O)OP(=O)(O)O)[C@@H](O)[C@H]1O | P2X purinoceptor 1 (P2RX1, Homo sapiens, UniProt P51575, K215A) | calcium influx |  | 10 nM | relative to: ionomycin response | calcium influx | 2.23% and 0% and 3%
CC(=O)N[C@H](C(=O)N[C@@H](CC(N)=O)C(=O)N[C@@H](CCCCN)C(=O)N1CCC[C@H]1C(=O)N[C@@H](CC(C)C)C(=O)N1CCC[C@H]1C(=O)N1CCC[C@H]1C(=O)N[C@@H](CC(C)C)C(=O)N1CCC[C@H]1C(=O)N[C@H](C(=O)N[C@@H](C)C(N)=O)C(C)C)C(C)C | Tyrosine-protein kinase Fyn, SH3 domain (FYN, Homo sapiens, UniProt P06241) | ligand binding, FTIR spectroscopy, item: asymmetric stretch band A |  | pH 7.0, FYN complex, with: 4 mM peptide |  | peak area | 12 ± 0.3%
COc1ccc(NC(=O)c2ccco2)cc1NC(=O)c1cccnc1 | Cyclin-dependent kinase 2, with cyclin A (CDK2, Homo sapiens, UniProt P24941) |  |  |  |  | Kd | > 100 µM
O=c1nc(SCc2ccc(C(F)(F)F)cc2)nc(SCc2csc3ccc(Cl)cc23)[nH]1 | DNA topoisomerase 2-alpha (TOP2A, Homo sapiens, UniProt P11388) | decatenation |  | 7.8 µM, replicate 1 |  | decatenated DNA | 98.5%
CC[C@@H]1Cc2cc(O)ccc2C2=C1c1ccc(O)cc1C[C@H]2CC | Genome polyprotein NS3 helicase domain | DNA binding, inhibitor | hepatitis C virus | 100 µM, with: Cy5-dT15 DNA |  | inhibition | 0%
COc1cc(/C=C2\CCC/C(=C\c3ccc(O)c(OC)c3)C2=O)ccc1O | haemin | binding, isothermal titration calorimetry |  | pH 7.4, 37 °C |  | ΔS | -199.1 ± 1.83 J/(mol·K)
N=C(N)NC(=O)Cc1c(Cl)cccc1Cl | Genome polyprotein NS3 helicase domain | DNA binding, inhibitor | hepatitis C virus | 100 µM, with: Cy5-dT15 DNA |  | inhibition | 1%
O=C(O)[C@@H]1CN(C(=O)c2cc(-c3ccccc3)c[nH]2)C[C@H]1c1ccc(Cl)cc1 | WD repeat-containing protein 91 WD40 domain, residues 392–747 | binding, SPR single-concentration screen |  | 45 µM |  | SPR response | 12.4 RU and 17.3 RU
O=[N+]([O-])c1cc(C(F)(F)F)ccc1NCc1ccsc1 | Endothelial PAS domain-containing protein 1, PAS-B domain (EPAS1, Homo sapiens, UniProt Q99814, N288A) | binding, ITC, reverse mode |  |  |  | TΔS | 1.25 ± 0.08 kcal/mol

SMILES | target | assay | test system | setting | scale | measurement | result
O=C1CC[C@H](N2Cc3c(ccc4c3OCC43CCN(C[C@@H]4CCC5(CCN(c6ccc([C@@H]7c8ccc(O)cc8CC[C@@H]7c7ccccc7)cc6)CC5)OC4)CC3)C2=O)C(=O)N1 | ESR1 | degrader, western blot | MCF7 | 10 and 100 nM, 7 h |  | ER level reduction | > 80%
CCC(=O)NS(=O)(=O)c1ccc(-c2c(-c3ccccc3)noc2C)cc1 | Nuclear receptor ROR-gamma (RORC, Homo sapiens, UniProt P51449) | reporter gene, Gal4 hybrid reporter |  | 50 µM | relative to: vehicle | activation | 0.82 fold
Cc1ccc(CNS(=O)(=O)c2c(C)[nH]c(C)c2C(=O)N2CCCC2)cc1Cl | D(3) dopamine receptor (DRD3, Homo sapiens, UniProt P35462) | Go activation, antagonist, BRET |  | with: dopamine |  | IC50 | > 100 µM
CC[C@H](C)[C@H](NC(=O)[C@H](CCC(=O)O)NC(=O)[C@H](CCC(=O)O)NC(=O)[C@@H]1CCCN1C(=O)[C@H](CC(=O)O)NC(=O)[C@H](C)NC(=O)[C@H](CCC(N)=O)NC(=O)[C@@H](NC(=O)[C@H](C)NC(=O)[C@@H](NC(=O)[C@H](CO)NC(=O)[C@@H](NC(=O)[C@H](CCCCN)NC(=O)[C@@H](N)Cc1ccc(O)cc1)[C@@H](C)O)C(C)C)[C@@H](C)O)C(=O)N[C@H](C(=O)N[C@H](C(=O)N[C@@H](CC(C)C)C(=O)N[C@@H](CC(=O)O)C(=O)N[C@@H](CC(=O)O)C(=O)N[C@@H](CC(=O)O)C(=O)N[C@@H](CC(=O)O)C(=O)O)C(C)C)[C@@H](C)CC | Small ubiquitin-related modifier 2, N-terminally truncated (Homo sapiens, UniProt P61956, C48A) | binding, ITC | Tris buffer | pH 7.4, ΔN-SUMO2 |  | -TΔS | -10.1 ± 0.1 kcal/mol
CCS(=O)(=O)N1CC(CC#N)(n2cc(-c3ncnc4[nH]ccc34)cn2)C1 | Alpha-1-acid glycoprotein 1 (ORM1, Homo sapiens, UniProt P02763) | modified Stern-Volmer |  | 293 K |  | fraction of accessible fluorescence | 0.53
NS(=O)(=O)C#Cc1ccccc1 | Genome polyprotein NS3 helicase domain | DNA binding, inhibitor | hepatitis C virus | 100 µM, with: Cy5-dT15 DNA |  | inhibition | 0%
Nc1ccn([C@H]2C[C@H](O)[C@@H](COP(=O)(O)OP(=O)(O)OP(=O)(O)O)O2)c(=O)n1 | DNA polymerase lambda (POLL, Homo sapiens, UniProt Q9UGP5, Y505A) | substrate, primer extension gel |  | Y505A mutant, AP-site template |  | kcat | 0.005 min⁻¹
CC(C)(C)c1ccc(C(=O)Nc2sc3c(c2C(=O)O)CCC3)cc1 | Voltage-gated potassium channel, KQT; KCNQ2(Kv7.2)/KCNQ3(Kv7.3) (KCNQ3/KCNQ2, Homo sapiens, UniProt O43525+O43526) | G(V) shift, activator, two-electrode voltage clamp | Xenopus oocytes | pH 7.4, up to 100 µM, at -17.2 mV |  | EC50 | 179 µM
COc1ccc(Cl)cc1C(=O)NCCc1ccc(S(=O)(=O)NC(=O)NC2CCCCC2)cc1 | Genome polyprotein NS3 helicase domain | DNA binding, inhibitor | hepatitis C virus | 100 µM, with: Cy5-dT15 DNA |  | inhibition | 1%
CCCN1C[C@H](CSC)C[C@@H]2c3cccc4[nH]cc(c34)C[C@H]21 | Glutamate receptor 2 (Homo sapiens, UniProt P42262) | ion current, agonist, SyncroPatch patch clamp | HEK293 | 3 µM |  | activation | 3%
C=C1CN(S(=O)(=O)c2ccc(C)cc2)CCCN(Cc2ccccc2)CCCN(S(=O)(=O)c2ccc(C)cc2)C1 | Protein transport protein Sec61 subunit alpha isoform 1 (Homo sapiens, UniProt P61619) | item: control signal peptide-FLuc reporter | HEK293 | 0.0014 mM, 6 h |  | FLuc/RLuc ratio | 1.1
CC[C@H](C)[C@H](NC(=O)[C@H](CCCCN)NC(=O)CNC(=O)[C@@H](NC(=O)[C@@H](NC(=O)[C@H](CCSC)NC(=O)[C@H](Cc1c[nH]cn1)NC(=O)CN)[C@@H](C)O)C(C)C)C(=O)N[C@@H](Cc1ccc(O)cc1)C(=O)N[C@@H](C)C(=O)N[C@@H](C)C(=O)N[C@@H](CCSC)C(=O)N[C@@H](CCSC)C(=O)N[C@@H](C)C(=O)N[C@@H](CCSC)C(=O)N[C@@H](CCC(=O)O)C(=O)N[C@@H](Cc1ccc(O)cc1)C(=O)N[C@@H](Cc1ccc(O)cc1)C(=O)N[C@@H](CCCNC(=N)N)C(=O)N[C@@H](CCC(N)=O)C(=O)N[C@@H](CO)C(=O)N[C@@H](CCCCN)C(=O)N[C@@H](C)C(=O)N[C@@H](CCCCN)C(=O)N[C@@H](CCCCN)C(=O)N[C@@H](CC(C)C)C(=O)N[C@@H](CCC(N)=O)C(=O)N[C@@H](C)C(=O)N[C@@H](CCSC)C(=O)N[C@@H](CCCNC(=N)N)C(=O)O | Calmodulin-1, Ca2+-bound N-lobe (CALM1, Homo sapiens, UniProt P0DP23) | binding, isothermal titration calorimetry |  | pH 7.4, 15 °C, N-lobe, CaV2.1 IQ domain, with: Ca2+ |  | stoichiometry | 0.82 ± 0.01
COc1ccc(C(=O)N2CCC(C#N)CC2)cc1OC1CCN(C)CC1 | WD repeat-containing protein 91 WD40 domain, residues 392–747 | SPR |  | 45 µM |  | binding | -15% and -6%
CC(C)=CCc1c(O)ccc(C(=O)/C=C/c2ccc(O)cc2)c1O | ESR1 | array formation | PRL-HeLa |  | relative to: EC50 ERβ over EC50 ERα | selectivity ratio | 24
CN1C(=O)C(c2c(-c3ccc(Cl)cc3)[nH]c3c2c(=O)[nH]c(=O)n3C)c2ccccc21 (centres unmarked) | WD repeat-containing protein 91 (Homo sapiens, UniProt A4D1P6) | binding, SPR steady state |  | 1.875 µM |  | SPR response | 16.2 RU
COC(=O)[C@@H]1CCCN1Cc1cn(-c2ccc(C(=O)N3CCC(C#N)CC3)cc2)nn1 | WD repeat-containing protein 91 WD40 domain, residues 392–747 | binding, SPR single-concentration screen |  | 45 µM |  | SPR response | 1.1 RU and -3.9 RU

A few entries again:
SMILES | target | assay | test system | setting | scale | measurement | result
Nc1ncnc2c1ncn2[C@@H]1O[C@H](COP(=O)(O)CP(=O)(O)OP(=O)(O)O)[C@@H](O)[C@H]1O | P2X purinoceptor 1 (P2RX1, Homo sapiens, UniProt P51575, K215A) | calcium influx |  | 10 nM | relative to: ionomycin response | calcium influx | 2.23% and 0% and 3%
CC(=O)N[C@H](C(=O)N[C@@H](CC(N)=O)C(=O)N[C@@H](CCCCN)C(=O)N1CCC[C@H]1C(=O)N[C@@H](CC(C)C)C(=O)N1CCC[C@H]1C(=O)N1CCC[C@H]1C(=O)N[C@@H](CC(C)C)C(=O)N1CCC[C@H]1C(=O)N[C@H](C(=O)N[C@@H](C)C(N)=O)C(C)C)C(C)C | Tyrosine-protein kinase Fyn, SH3 domain (FYN, Homo sapiens, UniProt P06241) | ligand binding, FTIR spectroscopy, item: asymmetric stretch band A |  | pH 7.0, FYN complex, with: 4 mM peptide |  | peak area | 12 ± 0.3%
COc1ccc(NC(=O)c2ccco2)cc1NC(=O)c1cccnc1 | Cyclin-dependent kinase 2, with cyclin A (CDK2, Homo sapiens, UniProt P24941) |  |  |  |  | Kd | > 100 µM
